Published values from different studies.
A part holds a random share of what one study measured. Substitutions count along the parent as printed.
Chain of UniProt O75676 (whole entry, looked up): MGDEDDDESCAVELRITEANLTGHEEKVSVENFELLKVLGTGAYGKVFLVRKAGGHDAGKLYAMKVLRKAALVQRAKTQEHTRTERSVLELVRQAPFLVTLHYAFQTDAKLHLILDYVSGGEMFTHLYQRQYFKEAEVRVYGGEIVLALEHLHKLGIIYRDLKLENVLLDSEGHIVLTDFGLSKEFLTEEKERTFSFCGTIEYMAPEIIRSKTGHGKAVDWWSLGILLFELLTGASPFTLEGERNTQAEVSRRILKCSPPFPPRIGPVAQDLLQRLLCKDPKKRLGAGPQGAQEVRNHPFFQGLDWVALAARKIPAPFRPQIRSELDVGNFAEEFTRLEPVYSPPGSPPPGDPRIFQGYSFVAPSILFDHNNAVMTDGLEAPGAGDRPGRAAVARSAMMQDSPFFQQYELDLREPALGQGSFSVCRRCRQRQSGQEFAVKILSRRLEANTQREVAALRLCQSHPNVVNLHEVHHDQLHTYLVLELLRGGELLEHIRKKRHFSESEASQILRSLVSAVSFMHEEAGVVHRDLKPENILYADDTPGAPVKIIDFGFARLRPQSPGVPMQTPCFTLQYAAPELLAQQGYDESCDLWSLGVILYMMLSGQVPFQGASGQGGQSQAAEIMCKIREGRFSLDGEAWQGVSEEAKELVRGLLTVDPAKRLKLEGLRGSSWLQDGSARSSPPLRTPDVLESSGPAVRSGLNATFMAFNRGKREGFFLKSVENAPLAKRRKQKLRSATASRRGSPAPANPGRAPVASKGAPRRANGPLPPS
Chain of UniProt Q13131 (whole entry, looked up): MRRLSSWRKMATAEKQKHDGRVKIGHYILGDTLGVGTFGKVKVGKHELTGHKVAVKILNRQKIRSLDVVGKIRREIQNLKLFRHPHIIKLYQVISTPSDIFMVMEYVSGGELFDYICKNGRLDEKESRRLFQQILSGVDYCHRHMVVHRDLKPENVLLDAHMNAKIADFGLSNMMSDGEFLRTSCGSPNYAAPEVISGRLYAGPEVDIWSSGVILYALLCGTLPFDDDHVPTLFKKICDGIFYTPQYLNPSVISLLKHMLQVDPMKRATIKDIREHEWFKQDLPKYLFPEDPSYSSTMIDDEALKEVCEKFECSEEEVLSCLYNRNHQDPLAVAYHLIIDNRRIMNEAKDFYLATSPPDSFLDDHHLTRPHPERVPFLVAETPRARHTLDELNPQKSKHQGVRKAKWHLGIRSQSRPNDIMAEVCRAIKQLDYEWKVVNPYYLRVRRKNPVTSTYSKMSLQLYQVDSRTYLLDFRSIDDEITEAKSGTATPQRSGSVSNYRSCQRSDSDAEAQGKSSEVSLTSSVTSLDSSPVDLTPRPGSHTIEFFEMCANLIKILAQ

Study 1
Target: CCNE1, cyclin fold, Cln2 fusion (human)
Method: yeast growth competition, sequencing
Sample: yeast
Notes: strong parent motif
Relative to: not given
Reading: higher = stronger binding
Measurement: normalised enrichment score
Parent: CDC25A docking peptide (human); PPHRRRLLFACSP
PPHRRRLLFWCSP [A10W]: 1.46
PPHRQRLLFACSP [R5Q]: 0.83
PPHRRRLLIACSP [F9I]: 0.661
PPHRRRVLFACSP [L7V]: 0.445
PPHRRRLPFACSP [L8P]: 0.122
PPHRRRNLFACSP [L7N]: 0.423
PPHARRLLFACSP [R4A]: 1.96
PPHRRRLLFRCSP [A10R]: 1.13

Study 2
SMILES: CCCOc1ccc([C@H]2[C@H](C(=O)O)[C@@H](c3ccc4c(c3)OCO4)CN2CC(=O)Nc2c(CC)cccc2CC)cc1
Read-out: cell-free assay
Method: competition with immobilised ligand
Concentration: 1 µM
Measurement: remaining binding
FLT3 (Homo sapiens, UniProt P36888, R834Q): 91%
Ribosomal protein S6 kinase alpha-4, C-terminal kinase domain (RPS6KA4, Homo sapiens, UniProt O75676): 68%
PRKAA1 (Homo sapiens, UniProt Q13131): 100%

Study 3
Target: Histone acetyltransferase KAT6A, winged helix 1, GST fusion (KAT6A, Homo sapiens, UniProt Q92794, residues 1-85)
Method: protein binding microarray
Molecule type: double-stranded DNA, one strand shown
Sample: in vitro
Concentration: not given
Notes: 8-mer, flanks averaged, mean of 2 arrays, mostly near background
Relative to: not given
Reading: higher = stronger binding
Measurement: E-score
Construct (chain): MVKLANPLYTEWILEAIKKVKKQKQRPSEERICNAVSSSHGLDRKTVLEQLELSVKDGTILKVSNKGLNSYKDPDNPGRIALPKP
AATATGGG: -0.189
AATGGAAA: -0.0421
CGGGGCAA: 0.0732
AGACATAC: -0.037
TAAAATAA: -0.098
CGGTAATC: 0.229
ACGCGATA: 0.204
GAGAATGA: -0.176

Other studies, line by line
CCOC(=O)[C@@H]1CSCC(=O)N[C@@H](CC)C(=O)N(C)[C@@H](C)C(=O)N[C@@H](CC(C)C)C(=O)N2CCC[C@@H]2C(=O)N(CC)CC(=O)N[C@@H](CC(C)C)C(=O)N(C)[C@@H](C)C(=O)N[C@@H](CC(C)C)C(=O)N1C — logD (hydrocarbon/water): 1.63

Repeated from above (study 1):
PPHARRLLFACSP [R4A]: 1.96
PPHRRRLLIACSP [F9I]: 0.661
PPHRRRLLFRCSP [A10R]: 1.13
